# Assay results of several laboratories.
# Compare with care: the assays were run in different laboratories. ± marks the error that the study gave.
# Target: Cytochrome P450 2C9 (CYP2C9, Homo sapiens, UniProt P11712)
# Sequence of UniProt P11712 (whole entry, looked up): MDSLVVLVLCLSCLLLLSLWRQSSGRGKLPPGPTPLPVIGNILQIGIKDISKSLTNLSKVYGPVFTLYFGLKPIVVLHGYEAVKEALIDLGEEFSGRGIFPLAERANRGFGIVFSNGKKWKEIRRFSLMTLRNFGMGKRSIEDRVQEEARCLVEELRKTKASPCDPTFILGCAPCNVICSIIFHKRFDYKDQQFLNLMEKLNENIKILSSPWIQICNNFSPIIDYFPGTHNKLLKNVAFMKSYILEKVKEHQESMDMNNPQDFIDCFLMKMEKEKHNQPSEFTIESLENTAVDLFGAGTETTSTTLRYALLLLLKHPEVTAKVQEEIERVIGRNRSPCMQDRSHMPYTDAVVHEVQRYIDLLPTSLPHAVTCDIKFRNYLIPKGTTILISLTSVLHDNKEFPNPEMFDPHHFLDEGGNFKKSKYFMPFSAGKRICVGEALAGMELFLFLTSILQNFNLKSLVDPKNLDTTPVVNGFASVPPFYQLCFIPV
SMILES,assay,system,setting,scale,measurement,value
O=C1Cc2cc(CCN3CCN(c4nsc5ccccc45)CC3)c(Cl)cc2N1,inhibitor,human liver microsomes,"10 µM, pH 7.4, added: diclofenac",,inhibition,1%
Cc1cc(C)nc(Nc2ncc(C(=O)NCCc3c(C)[nH]c4ccccc34)cn2)c1,recombinant enzyme phenotyping,,"1 µM, 30 min",,fraction metabolised,2.1%
CCC[S+]([O-])c1ccc2[nH]c(NC(=O)OC)nc2c1 (stereo not drawn),inhibitor,human liver microsomes,"10 µM, pH 7.4, added: diclofenac",,inhibition,9%
Cn1nccc1[C@]1(CNC(=O)c2ccc(F)c(F)c2-c2ccc(C(F)(F)F)cc2)NC(=O)NC1=O,,human liver microsomes,added: diclofenac,no inhibition up to value,IC50,> 20 µM
S=C=NCCc1ccccc1,enzyme activity,human liver microsomes,"concentration not given, added: tolbutamide",,inhibition,~58%
N#Cc1ccc([C@H]2CCc3cncn32)c(F)c1,inhibitor,,,,Ki,20 µM
O=C/C=C/c1ccccc1,inhibitor,,,,IC50,43.3 µg/mL
CC(C)CC(=O)OC[C@H]1O[C@@](C#N)(c2ccc3c(N)ncnn23)[C@H](O)[C@@H]1O,metabolic stability,recombinant enzyme,"1 µM, 30 min",,remaining compound,98.2 ± 2%
CS(=O)(=O)Nc1ncn(-c2cc(F)c(COc3ccc(OS(=O)(=O)F)cc3)c(F)c2)n1,,,,,IC50,> 50 µM

# Some of these lines once more:
SMILES,assay,system,setting,scale,measurement,value
Cc1cc(C)nc(Nc2ncc(C(=O)NCCc3c(C)[nH]c4ccccc34)cn2)c1,recombinant enzyme phenotyping,,"1 µM, 30 min",,fraction metabolised,2.1%
